# Measured values of several laboratories.
# Parts stem from different laboratories: compare values within a part only.

# Study 1
# Target: Histone acetyltransferase KAT6A, both winged helices, GST fusion (KAT6A, Homo sapiens, UniProt Q92794, residues 1-181)
# Method: protein binding microarray
# Form: double-stranded DNA, one strand shown
# Sample: in vitro
# Tested at: not given
# Setting: 8-mer, flanks averaged, mean of 2 arrays, mostly near background
# Baseline: not given
# Direction: higher = stronger binding
# Residues (chain): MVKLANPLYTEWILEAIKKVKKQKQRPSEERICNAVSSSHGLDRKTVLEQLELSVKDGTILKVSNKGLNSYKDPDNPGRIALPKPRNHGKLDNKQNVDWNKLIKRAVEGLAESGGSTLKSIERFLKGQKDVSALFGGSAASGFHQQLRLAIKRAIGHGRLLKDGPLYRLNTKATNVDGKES
Strand,E-score
ACGAAATC,-0.0457
CGACAACA,0.108
GGATGAAC,-0.0703
GGGTGGGA,-0.0717

# Study 2
# Target: Prothrombin, mature alpha-thrombin (F2, Homo sapiens, UniProt P00734)
# Method: aptamer microarray, sandwich
# Form: DNA with 2'F-ANA
# Sample: in vitro
# Tested at: 200 nM
# Setting: whole 15-mer aptamer, many near background
# Together with: Cy3 exosite-II aptamer, 400 nM
# Direction: higher = stronger binding
Strand,mean fluorescence intensity
GGTTGGTGTGGTTGG (2'F-ANA at 2 8 10 12 15),174 a.u.
GGTTGGTGTGGTTGG (2'F-ANA at 2 3 6 7 8 9 10 11 13 15),303 a.u.
GGTTGGTGTGGTTGG (2'F-ANA at 2 3 5 6 8 9 10 15),52.8 a.u.
GGTTGGTGTGGTTGG (2'F-ANA at 2 3 4 5 6 7 8 11),88.6 a.u.

# Study 3
# Target: Interferon regulatory factor 5, full length, phosphomimetic (IRF5, Homo sapiens, UniProt Q13568-2, residues 1-514, S451D/S453D/S456D/S462D)
# Method: protein-binding microarray
# Form: double-stranded DNA, one strand shown
# Sample: in vitro
# Tested at: 940 nM top
# Setting: 60-bp whole probe
# Together with: salmon DNA 0.4 mg/ml
# Baseline: random background probes
# Direction: higher = stronger binding
# Constant ends, left off below: GCCTAGCAC … GTGCTAGGTCTTGATTCGCTTGACGCTGCTG
Strand,fitted relative affinity
GAGGGTATCCTTCTCCTGAC,0.168 z-score
TCAAATTTTGCTTCTAGACT,-0.0574 z-score
TCATGTTTCCTCTTTCAACT,1.4 z-score
TTAGGTCTCGATCTCGGTTA,3.75 z-score
TAAGGTTTCCTTTTCCTTTA,1.22 z-score
TTAGGTTTCGGACTGGGGTA,7.24 z-score

# Mixed results
Substance,target,test,test system,conditions,scale,quantity,value
"PhoQ, residues 284 288 289 292 302 303 TGYLSA","PhoP, residues 12 14 15 18 19 LHSVW (Escherichia coli, UniProt P23836)","Sort-seq, refers to: YFP reporter",E. coli,"PhoQ-PhoP variant library, together with: 10 µM Mg2+","baseline: high Mg2+ state, higher = stronger signaling",fold induction,4.18

# A few entries again (study 3):
Strand,fitted relative affinity
TCATGTTTCCTCTTTCAACT,1.4 z-score
